Experimental data collected from several papers.
Lines come from different studies, so protocols differ. Numbers after ± are the reported error.

Substance | assay | system | conditions | how to read | quantity | value
COC(=O)N[C@H](C(=O)N1CCC[C@H]1C(=O)Nc1ccc([C@@H]2CC[C@@H](c3ccc(NC(=O)[C@@H]4CCCN4C(=O)[C@@H](NC(=O)OC)C(C)C)cc3)N2c2ccc(C(C)(C)C)cc2)cc1)C(C)C |  | healthy human volunteers, plasma | oral, dose not given, rosuvastatin interaction study | relative to: given without rosuvastatin | AUC(0-24) | 1020 ng·h/mL
CC[C@H](C)[C@H](NC(=O)[C@H](CCCCN)NC(=O)[C@H](Cc1c[nH]c2ccccc12)NC(=O)[C@H](Cc1c[nH]c2ccccc12)NC(=O)[C@H](CCCCN)NC(=O)[C@H](CCCCN)NC(=O)[C@H](CCCCN)NC(=O)[C@H](Cc1c[nH]c2ccccc12)NC(=O)[C@H](CCCCN)NC(=O)[C@H](CCCCN)NC(=O)[C@H](Cc1c[nH]c2ccccc12)NC(=O)[C@H](CCCCN)NC(=O)[C@H](CCCCN)NC(=O)[C@@H](NC(=O)[C@@H](NC(=O)[C@H](CCCCN)NC(=O)[C@@H](N)CCCNC(=N)N)[C@@H](C)CC)[C@@H](C)CC)C(=O)N[C@@H](Cc1c[nH]c2ccccc12)C(=O)N[C@@H](Cc1c[nH]c2ccccc12)C(=O)N[C@@H](CCCCN)C(=O)NCCOCCOCC(N)=O | ANS fluorescence | water | 30 min, room temperature |  | critical aggregation concentration | ~4 µg/mL
Cn1cc(-c2ccc(Cn3cc(C(=O)N[C@H]4CCCC[C@@H]4O)c4c(F)cc(F)cc43)cn2)cn1 |  | rat Sprague-Dawley, male, brain, plasma | intravenous, 0.20 to 0.25 mg/kg, 0.25 h, cassette dosing |  | brain/plasma ratio Kp | 0.113
CC(C)[C@H]1C(=O)N[C@@H](CCCN=C(N)N)C(=O)NCC(=O)N[C@@H](CC(=O)O)C(=O)N[C@H](Cc2ccccc2)C(=O)N1C |  | NMRI mice, female, plasma | intravenous, 2.5 mg/kg |  | plasma half-life | 18 min
ClC(Cl)(Cl)Cl |  | Sprague-Dawley rat, male, liver | oral, 50 mg/kg, 24 h, single low dose | direction not given | hepatocyte vacuolization score | 0
CC(=O)N[C@H](CCCCNC(=O)C(C)F)C(=O)N[C@@H](CS)C(=O)N[C@@H](CS)C(=O)N[C@@H](CCC(=O)O)C(=O)N[C@@H](Cc1c[nH]cn1)C(=O)N[C@H](Cc1ccccc1)C(=O)N[C@@H](CCCNC(=N)N)C(=O)N[C@@H](Cc1c[nH]c2ccccc12)C(=O)N[C@@H](CS)C(=O)N[C@@H](CCCNC(=N)N)C(=O)N1CCC[C@H]1C(=O)N[C@H](C(N)=O)C(C)C (some centres unmarked) [fluorine-18 labelled] |  | male C57BL/6 mice, B16-F10 tumour | intravenous, 1 h | relative to: tumour over blood | tumour to tissue uptake ratio | 2.03 ± 0.33
CCCCCOc1ccc(-c2cc(-c3ccc(C(=O)N[C@H]4C[C@@H](O)[C@@H](O)NC(=O)[C@@H]5[C@@H](O)[C@@H](C)CN5C(=O)[C@H]([C@H](O)CC(N)=O)NC(=O)[C@H]([C@H](O)[C@@H](O)c5ccc(O)c(OS(=O)(=O)O)c5)NC(=O)[C@@H]5C[C@@H](O)CN5C(=O)[C@H]([C@@H](C)O)NC4=O)cc3)no2)cc1 |  | young infants, plasma | intravenous, 7 and 10 mg/kg/day pooled, day 4, mean, repeat dosing |  | clearance at steady state | 0.6 mL/min
CNC[C@H](O)[C@@H](O)[C@H](O)[C@H](O)CO.CNC[C@H](O)[C@@H](O)[C@H](O)[C@H](O)CO.O=C([O-])CN(CCN(CC(=O)[O-])CC(=O)O)CCN(CC(=O)[O-])CC(=O)O.[Gd+3] | T1-weighted MRI, 9.4 T | nude mice, BT-20 breast cancer xenograft, tumour periphery | iv, 200 µmol/kg |  | half-life | 29.6 ± 2.4 min
Oc1cccc2ccccc12 | fish short-term reproduction | Oryzias latipes, female, water, flow-through | 80.0 µg/L, end of exposure |  | body weight | 702 ± 48 mg
[123I]c1cncc(OC[C@@H]2CCN2)c1 | SPECT | human, temporal lobe | intravenous bolus, 2.1 mCi | relative to: plasma | tissue/plasma ratio | 10.4
COc1ccc(-c2cc(=O)c3c(OC)c(OC)c(OC)c(OC)c3o2)cc1OC |  | C57BL/6 mouse, male, liver | oral, 1% w/w in diet, 6 weeks, orange peel extract diet | relative to: content in orange peel | tissue to peel content ratio | 0.055%
CN[C@@](C)(C[18F])C(=O)O |  | SCID mouse SK-OV-3 xenograft, kidney | 120 min, post injection |  | tissue uptake | 2.8 ± 0.5 %ID/g
O=C1[O][Pt]2([NH][C@@H]3CCCC[C@H]3[NH]2)[O]C1=O |  | human advanced solid tumours | intravenous, every 2 weeks, with: FOLFOX |  | MTD | 85 mg/m²
CSCC[C@@H]1NC(=O)[C@H](CC(=O)O)NC(=O)CNC(=O)[C@H](CCCNC(=N)N)NC(=O)[C@H](C)NC(=O)[C@H](CCC(=O)O)NC(=O)[C@H](CCCNC(=N)N)NC(=O)[C@@H]2CSSC[C@@H]3NC(=O)[C@H](CO)NC(=O)[C@H]([C@@H](C)O)NC(=O)[C@@H]4CCCN4C(=O)[C@H](C)NC(=O)[C@H](Cc4c[nH]c5ccccc45)NC(=O)[C@H](CC(=O)O)NC(=O)CNC(=O)[C@H](CCCNC(=N)N)NC(=O)CNC(=O)[C@H](CCC(N)=O)NC(=O)[C@@H]4CCCN4C(=O)[C@@H](NC(=O)CNC(=O)C(C)F)CSSC[C@H](NC(=O)CNC(=O)[C@H](C)NC(=O)[C@H](CC(C)C)NC(=O)[C@H](CSSC[C@@H](C(=O)NCC(N)=O)NC(=O)[C@H]([C@@H](C)O)NC(=O)[C@H](CCCNC(=N)N)NC(=O)[C@@H]4CCCN4C1=O)NC(=O)[C@H](CC(=O)O)NC(=O)[C@H](CO)NC(=O)[C@H](CC(=O)O)NC(=O)[C@H](CCC(N)=O)NC(=O)[C@H](CO)NC3=O)C(=O)N[C@@H](C(C)C)C(=O)N2 (some centres unmarked) [fluorine-18 labelled] |  | nude mice, U-87 MG xenograft, heart | intravenous, 2.5 h, with: cyclo(RGDyK) 330 µg coinjected |  | tissue uptake | 0.21 ± 0.02 %ID/g
CC[C@H](C)[C@H](NC(=O)[C@@H](N)CCCNC(=N)N)C(=O)N[C@H](C(=O)N1CCC[C@H]1C(=O)N[C@@H](C)C(N)=O)C(C)C |  | human, plasma | intravenous, 8 mg/kg, single dose, healthy volunteers |  | MRT | 4.2 min
CC[C@H](C)C(=O)O[C@H]1C[C@H](O)C=C2C=C[C@H](C)[C@H](CC[C@@H](O)C[C@@H](O)CC(=O)O)[C@H]21 |  | healthy volunteers, plasma | oral, dose not given, given alone |  | AUC | 49.4 ng·h/mL

Substance | assay | system | conditions | how to read | quantity | value
CS(=O)(=O)CCCn1c(Cn2c(=O)n(CC(F)(F)F)c3ccncc32)cc2cc(Cl)ccc21 |  | RSV-infected infants | dose not given, low dose cohorts |  | serious adverse events | 8%
COc1ccc(C[C@@H]2NC(=O)[C@H]([C@@H](C)O)NC(=O)[C@@H]3[C@@H]4CCN3C(=O)[C@@H]3Cc5cn(c6ccc(F)cc56)CCCCCCN(Cc5ccc(cc5)CCNC(=O)[C@]5(C)CCCN5C2=O)C(=O)CCC(=O)N[C@@H](C)C(=O)N[C@H](CNC(=O)CCCCC[N+](C)(C)C)C(=O)N[C@@H](Cc2cccc(c2)CNC(=O)CO4)C(=O)N3)cc1 |  | fasted healthy humans, plasma | oral, 200 mg single dose, with 1800 mg Labrasol, geometric mean |  | AUC(0-t) | 1.17 µM·h
NC(=O)c1nc(F)c[nH]c1=O | UV-Vis spectrophotometry | supercritical CO2 | 308 to 338 K, 12 to 30 MPa, overall range |  | solubility | 4 to 2620 µg/mL
N=C(N)NCCC[C@H](NC(=O)[C@H](Cc1c[nH]c2ccccc12)NC(=O)[C@H](CCC(N)=O)NC(=O)[C@H](Cc1c[nH]c2ccccc12)NC(=O)[C@@H](N)CCCNC(=N)N)C(=O)N[C@@H](Cc1c[nH]c2ccccc12)C(=O)N[C@@H](CCC(N)=O)C(=O)N[C@@H](Cc1c[nH]c2ccccc12)C(=O)N[C@@H](CCCN)C(N)=O |  | human erythrocytes O+ | 200 µg/mL, 2 h, 37 °C |  | hemolysis | 6.6%
CC[C@H](C)[C@H](NC(=O)[C@H](CCCCN)NC(=O)[C@H](CCCCN)NC(=O)[C@H](C)NC(=O)[C@@H](NC(=O)[C@H](CCCCN)NC(=O)[C@H](C)NC(=O)[C@H](C)NC(=O)[C@@H](NC(=O)CNC(=O)[C@H](C)NC(=O)[C@@H](NC(=O)[C@H](CCCCN)NC(=O)[C@@H]1CCCN1C(=O)[C@H](Cc1ccccc1)NC(=O)[C@@H](N)Cc1ccccc1)C(C)C)C(C)C)C(C)C)C(=O)N[C@@H](Cc1ccccc1)C(=O)N[C@H]1CSSC[C@@H](C(=O)O)NC(=O)[C@H](CCCCN)NC(=O)[C@H](CCCCN)NC(=O)[C@H](CO)NC(=O)[C@H]([C@@H](C)CC)NC(=O)[C@H]([C@@H](C)O)NC1=O | haemolysis | horse erythrocytes | 2 h, 37 °C |  | HC10 | 4.59 µM
CCCCCCCCCCCCCCCC[N+](C)(C)C | in vitro-in vivo extrapolation | human |  |  | hepatic clearance | 0.262 mL/h/g liver
O[C@H]1CCCN[C@@H]1CCCn1cnc2c(Cl)c(Cl)ccc21 |  | healthy human volunteers, plasma | oral, 200 mg, day 1, multiple ascending dose |  | MRT | 432 min
C(#Cc1cc(C#CCCC[n+]2cccc(-c3ccccc3)c2)c(C#CCCC[n+]2cccc(-c3ccccc3)c2)cc1C#CCCC[n+]1cccc(-c2ccccc2)c1)CCC[n+]1cccc(-c2ccccc2)c1.[Br-].[Br-].[Br-].[Br-] | rotarod | rat |  | relative to: motor ED50 over analgesic ED50 | ED50 ratio | 20 to 800 fold
Clc1cc2c(cc1Cl)Oc1cc(Cl)c(Cl)cc1O2 |  | zebrafish (Danio rerio) embryo, whole embryo, dry weight | waterborne, 1 ppb, 24 hpf |  | internal concentration | 0.67 ppt
[Met(O)35]Aβ42 | electron microscopy | sodium phosphate buffer | 10 µM, pH 7.4, 25 °C, agitation 200 rpm |  | time to fibril formation | 48 h
Cc1ccc([C@H]2C[C@@H]2COc2cc(NCc3nnc(C)s3)nc(C)n2)nc1 |  | rat (novel object recognition), plasma | oral, 0.16 mg/kg, 1 h |  | plasma concentration | 18 nM
CCCCCOc1ccc(-c2cc(-c3ccc(C(=O)N[C@H]4C[C@@H](O)[C@@H](O)NC(=O)[C@@H]5[C@@H](O)[C@@H](C)CN5C(=O)[C@H]([C@H](O)CC(N)=O)NC(=O)[C@H]([C@H](O)[C@@H](O)c5ccc(O)c(OS(=O)(=O)O)c5)NC(=O)[C@@H]5C[C@@H](O)CN5C(=O)[C@H]([C@@H](C)O)NC4=O)cc3)no2)cc1 |  | infants on ECMO, plasma | intravenous, 4 mg/kg every 24 h, 0 to 24 h, prophylactic arm |  | AUC | 74000 ng·h/mL
CCCCCCCCCCCCCCCCCC[N+](C)(C)Cc1ccccc1 | substrate depletion | human liver microsomes | 0.5 µM, 0 to 3 h, 37 °C, with: NADPH |  | intrinsic clearance | 0.23 mL/h/mg protein
CNC(=O)c1ccc(-c2cnn3ccc(C(=O)N(C)c4ccc(Cl)c(C(=O)OC)c4)cc23)cc1 |  | beagle dogs, both sexes, plasma | oral, 500 mg/kg/dose, 1000 mg/kg/day, day 1 |  | Cmax | 129 ng/mL
CC1N=C(c2ccccc2F)c2cc(Nc3ccccc3)ccc2NC1=O (centres unmarked) | shake flask | PBS | 24 h, pH 7.4 |  | solubility | 2.17 µM
COc1cccc2c1cc([N+](=O)[O-])c1c(C(=O)O)cc3c(c12)OCO3 |  | Sprague-Dawley rat, male, isolated perfused kidney | 50 µM, kidney B |  | renal clearance | 0.00357 mL/min

Excerpt of the above:
Substance | assay | system | conditions | how to read | quantity | value
COc1cccc2c1cc([N+](=O)[O-])c1c(C(=O)O)cc3c(c12)OCO3 |  | Sprague-Dawley rat, male, isolated perfused kidney | 50 µM, kidney B |  | renal clearance | 0.00357 mL/min
Oc1cccc2ccccc12 | fish short-term reproduction | Oryzias latipes, female, water, flow-through | 80.0 µg/L, end of exposure |  | body weight | 702 ± 48 mg
[123I]c1cncc(OC[C@@H]2CCN2)c1 | SPECT | human, temporal lobe | intravenous bolus, 2.1 mCi | relative to: plasma | tissue/plasma ratio | 10.4
NC(=O)c1nc(F)c[nH]c1=O | UV-Vis spectrophotometry | supercritical CO2 | 308 to 338 K, 12 to 30 MPa, overall range |  | solubility | 4 to 2620 µg/mL
